Published values gathered from unrelated publications.
Numbered parts are unrelated; each lists some results of a single study. Changes are numbered by the printed parent chain.

Series 1 — technique: universal PBM; form: double-stranded DNA, one strand shown; matrix: in vitro; concentration: not given; direction: higher = stronger binding
Target: Sal-like protein 4, full length isoform B (SALL4, Homo sapiens, UniProt Q9UJQ4-2, residues 1-616)
Setting: 8-mer, flanks averaged, mean of replicates
The E-score of `CCGATGCA` is reported as -0.2.
With `AAGACTGG` the E-score was -0.00181.
`ACGGTGTC` gave an E-score of -0.232.
With `CCTGCGCG` the E-score was -0.214.
For `GGAAGCCC`, the E-score was -0.304.
`ACACTTAT` gave an E-score of 0.225.
The E-score of `CAATGGTA` is reported as 0.14.
For `CATACCTA`, the E-score was 0.118.
For `AAAATAAA`, the E-score was 0.371.
For `CTACTTGC`, the E-score was 0.083.
`CCGGACAA` gave an E-score of -0.132.
The E-score of `ATTTAGGC` is reported as 0.109.
For `GACTCATA`, the E-score was 0.195.
With `ACTACTTG` the E-score was 0.112.
For `CCGGCTAA`, the E-score was -0.126.
`ACTCAGGG` has an E-score of -0.283.
`CATAATCC` gave an E-score of 0.274.
For `ACCTCCCT`, the E-score was -0.168.
The E-score of `CCCCCCAC` is reported as -0.205.
`CAGCATAG` has an E-score of 0.0939.
`GCTGTGGA` has an E-score of -0.0779.
The E-score of `GACTTGAA` is reported as 0.0232.
`GTCTGGAA` gave an E-score of -0.0631.
`CCCACCGA` has an E-score of -0.28.
For `GATGGCTA`, the E-score was 0.0692.

Series 2 — technique: DHFR PCA, deep sequencing; matrix: yeast; added: (+)-ABA 2500 µM; baseline: wild-type fitted maximum; direction: higher = stronger binding
Target: ABI1, truncated, D143A, DHFR fusion (Arabidopsis thaliana)
Setting: methotrexate growth selection, single substitutions
Starting sequence: PYL1, truncated, DHFR fusion (Arabidopsis thaliana); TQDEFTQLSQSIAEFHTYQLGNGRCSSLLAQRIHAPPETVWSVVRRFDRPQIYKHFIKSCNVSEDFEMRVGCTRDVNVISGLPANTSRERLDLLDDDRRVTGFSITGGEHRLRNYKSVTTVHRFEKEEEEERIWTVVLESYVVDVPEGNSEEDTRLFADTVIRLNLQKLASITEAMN; partner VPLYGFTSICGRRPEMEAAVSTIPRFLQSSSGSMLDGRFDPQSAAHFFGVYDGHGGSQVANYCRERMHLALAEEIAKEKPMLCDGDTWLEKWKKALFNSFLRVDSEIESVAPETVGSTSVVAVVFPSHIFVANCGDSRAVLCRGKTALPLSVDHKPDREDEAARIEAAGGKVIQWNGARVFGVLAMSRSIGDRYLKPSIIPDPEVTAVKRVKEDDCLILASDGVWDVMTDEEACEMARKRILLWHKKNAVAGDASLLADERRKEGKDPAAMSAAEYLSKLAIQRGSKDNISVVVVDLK
For `R98S`, “relative binding score” read 101%.
`F66V` — result for “relative binding score”: 95.9%.
For `G102V`, “relative binding score” read 78.3%.
`D96T`: “relative binding score” 85.6%.
Under “relative binding score”, `L138W` is recorded as 60.2%.
`I162M`: “relative binding score” 78.5%.
`D92F` — result for “relative binding score”: 85.5%.
`L29P`: “relative binding score” 3.07%.
Under “relative binding score”, `L169P` is recorded as 6.99%.
`F47A`: “relative binding score” 23.6%.
`L93C`: “relative binding score” 108%.
`R32H` — result for “relative binding score”: 98.1%.
`N177I`: “relative binding score” 90.6%.
`T135W` — result for “relative binding score”: 8.69%.
For `F47H`, “relative binding score” read 26.7%.
For `H110N`, “relative binding score” read 111%.
For `R113H`, “relative binding score” read 106%.

Series 3 — technique: protein binding microarray; form: double-stranded DNA, one strand shown; matrix: in vitro; concentration: not given; baseline: not given; direction: higher = stronger binding
Target: Histone acetyltransferase KAT6A, winged helix 2, GST fusion (KAT6A, Homo sapiens, UniProt Q92794, residues 85-181)
Setting: 8-mer, flanks averaged, mean of 2 arrays, mostly near background
Construct (chain): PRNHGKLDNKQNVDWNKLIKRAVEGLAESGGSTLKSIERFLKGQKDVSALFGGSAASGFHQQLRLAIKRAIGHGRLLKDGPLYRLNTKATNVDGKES
With `GGACTCAC` the E-score was -0.17.
For `ATCACGAC`, the E-score was -0.0582.
For `AATGCGTG`, the E-score was -0.0349.
`CGCAAGCG` gave an E-score of 0.168.
`ACGCGGCC` gave an E-score of 0.027.
With `AATGGATC` the E-score was -0.0596.
For `ACAGCGTG`, the E-score was 0.17.
For `CTGACCGA`, the E-score was -0.0496.
The E-score of `AGCCCGCT` is reported as 0.0188.
The E-score of `CGTATAGA` is reported as -0.0533.
For `CTCCGAAC`, the E-score was 0.0814.
`TAAATATA` has an E-score of 0.139.
The E-score of `ACATAGTG` is reported as -0.171.
`GCAGCCCA` has an E-score of -0.00805.
For `AGCGAAAC`, the E-score was 0.167.
With `AACTGCCC` the E-score was 0.0843.
`AAGGGAAC` gave an E-score of -0.0321.
`CAGACCTA` has an E-score of -0.0266.
The E-score of `CAAACAGA` is reported as 0.113.
The E-score of `ACGCTGCC` is reported as -0.0457.
The E-score of `AAGCAAAA` is reported as 0.206.
`ATCAAAGG` gave an E-score of -0.0921.

Series 4 — technique: RNA Bind-n-Seq; form: RNA; matrix: in vitro; concentration: 365 nM; baseline: no-protein control; direction: higher = stronger binding
Target: RNA binding protein fox-1 homolog 2, RRM domain, GST-SBP tag (RBFOX2, Homo sapiens, UniProt O43251-10, residues 100-194)
Setting: natural RNA segment, single round, ends assumed
Residues (chain): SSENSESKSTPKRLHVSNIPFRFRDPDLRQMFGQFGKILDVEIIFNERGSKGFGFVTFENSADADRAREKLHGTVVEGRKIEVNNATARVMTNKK
Under “RBNS enrichment (R)”, `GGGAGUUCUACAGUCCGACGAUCUGGGCCAAUUAUUCAAUUUUCAAGAAUUUUGUUGCAAGCCAGUUGUCAAACACAGCCAUUAUAAUUAUGUAAAUUUGCAAAUUAUGUUAAAAACAAGGACAAUAAAUAUUUGGAAUUCUCGGGUGCCAA` is recorded as 0.619.
Under “RBNS enrichment (R)”, `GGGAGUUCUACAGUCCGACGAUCUUCCCGCGCACUGAAAGGGCAGAGUAGGCCGAAGGGUCCAAGGGCCAGACUGCCUCACCCUCUGCCCUAAUCAGCAGGGUGGGCCUGCCUUUUGCUAAGCGAUCUCUAUGUGGAAUUCUCGGGUGCCAA` is recorded as 0.207.
For `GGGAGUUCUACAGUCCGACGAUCAGGUAGCCAGGGGGCAUUUGCUGUCCAAAAAAAUGUUAUGAGCAGAAGAGAUUUUUACAGUAACAUAAAAGCAGAAUUCUUAUGUUGAUAUUAACCUGCAAAUGGACUGUUGGAAUUCUCGGGUGCCAA`, “RBNS enrichment (R)” read 0.493.
Under “RBNS enrichment (R)”, `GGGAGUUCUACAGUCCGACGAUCGGGCUCAGCCCUCUAGAGCGCCUGUGGAGGCAGUUUCCAGGCAGUAAUGGAGUCCCCACCACCGCUUAGGUUCUGCUGGGGUCACACUGCCUUCAGAUUCCUGCCGCCAUUGGAAUUCUCGGGUGCCAA` is recorded as 0.415.
For `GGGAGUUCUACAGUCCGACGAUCCAAAACCUGGAGACGCAGCUACUGGAAUGGUGUUUUGUGAGACUUCCAAGGCUGGAAAGACACAGUCAUGGAUGUACUGUCUGAGCAUAGAGAACCCGGGCUUGAGUGAGUGGAAUUCUCGGGUGCCAA`, “RBNS enrichment (R)” read 6.5.
Under “RBNS enrichment (R)”, `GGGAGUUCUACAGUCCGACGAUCCAGGAGAGGAGUAGGUAAUGUUGGCCUUCAGUGGUAGCAGUCUUCUGGGGCAGGGGUCAGCCACUGUCCCAAUCAGUCCUUUCUGAAGGAGAAACCCAUUCCACAUUAACUGGAAUUCUCGGGUGCCAA` is recorded as 0.302.
`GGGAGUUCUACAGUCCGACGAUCCUUUCCCUUUCCCUUCAAAUCUUUUAAUGGUAAGAAAGCAAGUGAAGCUUGGUGCAAGCUAAAAUUUUUAAAUGGUGUGGAAAUGCAAAUAAUACCAAGUAAAAUAAUACUGGAAUUCUCGGGUGCCAA`: “RBNS enrichment (R)” 2.36.
For `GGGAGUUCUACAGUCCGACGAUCGCAUCAUACUUCAUGAUGUCAGAGUGUCUUGUCACGGUUUGGACUUAACUUCCCUCUAUAGUCAGCAGAGGGGAUCCGAGGCCCAGUGCUGCCUGGAGAACUGAGAAUAGUGGAAUUCUCGGGUGCCAA`, “RBNS enrichment (R)” read 0.563.
`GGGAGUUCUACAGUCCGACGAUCACCUCAGUCAAGACGGAAGUAAAGGCUCAGGAAACAGCCCACCACAGAGGCAGAUGCCAAACCAAAGACAGAUUGCUUAACCAACAGAUGGGCGCUGACCCCCUAUCCAGUGGAAUUCUCGGGUGCCAA`: “RBNS enrichment (R)” 0.319.
Under “RBNS enrichment (R)”, `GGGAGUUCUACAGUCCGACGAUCACCUAGGGAAUGGUUACCACUCCAUGUAAAGAAAACUCCCUCAUGCGUCCUCUGGGACCUUCUUAGAUGCUGUAAGGUACCUACAUACAGACUAAAUGUGCAAGCACCUUUGGAAUUCUCGGGUGCCAA` is recorded as 0.586.
`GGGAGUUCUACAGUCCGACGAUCAGCCAGUAAGAAAGUGACAGAAGCAAUGAAUGUCUUAAUGCAGUAUAGUUAAAAUGGCUUCCCACAGGGUAGAUAAUUAUCCAGGAUCCUUCCUUUUCCUUCUUCCUCCAUGGAAUUCUCGGGUGCCAA` — result for “RBNS enrichment (R)”: 1.01.
`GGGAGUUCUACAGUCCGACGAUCUGAGCCUUAUCUAAUCCAGGUAGCUUCCUAGUUAAAGACUUGGUUAUCUGCUUCUUUUUACUUCUCCAGGUUUUGAUUUGUUUUGUUUUGUUUUAUUUGCGGGGGGAGUGUGGAAUUCUCGGGUGCCAA`: “RBNS enrichment (R)” 2.61.

For quick reference, copied from above (series 1):
For `ACCTCCCT`, the E-score was -0.168.
For `CCGGCTAA`, the E-score was -0.126.
`CAGCATAG` has an E-score of 0.0939.
With `AAGACTGG` the E-score was -0.00181.
`CCGGACAA` gave an E-score of -0.132.
`ACGGTGTC` gave an E-score of -0.232.
For `GGAAGCCC`, the E-score was -0.304.
For `AAAATAAA`, the E-score was 0.371.
